Results from different studies.
Every numbered part comes from another study and shows a few of its results, in no order.

Set 1
Target: Centromere-binding protein 1, full length, N-terminal tag (CBF1, Saccharomyces cerevisiae, UniProt P17106, residues 1-351)
Chain of UniProt P17106 (whole entry, looked up): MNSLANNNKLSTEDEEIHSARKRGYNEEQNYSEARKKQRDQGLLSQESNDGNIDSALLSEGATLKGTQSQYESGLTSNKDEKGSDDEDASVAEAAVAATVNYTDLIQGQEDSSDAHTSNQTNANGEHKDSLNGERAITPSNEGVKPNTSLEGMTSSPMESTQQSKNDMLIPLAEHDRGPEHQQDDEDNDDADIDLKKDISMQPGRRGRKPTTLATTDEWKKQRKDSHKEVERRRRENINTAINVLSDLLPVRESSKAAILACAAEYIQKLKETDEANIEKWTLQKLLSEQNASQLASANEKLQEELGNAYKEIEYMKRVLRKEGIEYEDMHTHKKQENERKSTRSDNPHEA
Method: protein-binding microarray
Form: double-stranded DNA, one strand shown
Sample: in vitro
Concentration: 0.8 µM
Setting: whole 60-bp probe, no competitor
Direction: higher = stronger binding
Strand	fluorescence intensity
CCTAACTACTATAAACACATGAAATAGCTTCGTACAGTCTTGATTCGCTTGACGCTGCTG	519 a.u.
GAAGCAGTACGCTATCATGTGATGAAATATATTTAGGTCTTGATTCGCTTGACGCTGCTG	3460 a.u.
GAAATTATCAAGTCGTGCGTTCCACCCCCATTATAGGTCTTGATTCGCTTGACGCTGCTG	549 a.u.

Further values, each from its own experiment
KAT6A winged helix 1, GST fusion: Histone acetyltransferase KAT6A, winged helix 1, GST fusion (KAT6A, Homo sapiens, UniProt Q92794, residues 1-85)
RBFOX2 RRM domain, GST-SBP tag: RNA binding protein fox-1 homolog 2, RRM domain, GST-SBP tag (RBFOX2, Homo sapiens, UniProt O43251-10, residues 100-194)
Substance	target	test	test system	conditions	scale	measurement	value
ATTATCGA	KAT6A winged helix 1, GST fusion	protein binding microarray	double-stranded DNA, one strand shown, in vitro	not given, 8-mer, flanks averaged, mean of 2 arrays, mostly near background	relative to: not given, higher = stronger binding	E-score	-0.0158
GGGAGUUCUACAGUCCGACGAUCUUCCCACGGCCCAGUCCUCGCUGCAGUAACCCCUGGGGGCUCUGACCACCUAUGGGGGCCGGGCAGGAGCCUCUGGGGCCUCCACUCCGACAUCAGGACCUGAGAUGACCUGGAAUUCUCGGGUGCCAA	RBFOX2 RRM domain, GST-SBP tag	RNA Bind-n-Seq	RNA, in vitro	365 nM, natural RNA segment, single round, ends assumed	relative to: no-protein control, higher = stronger binding	RBNS enrichment (R)	0.372
AATTTGTG	KAT6A winged helix 1, GST fusion	protein binding microarray	double-stranded DNA, one strand shown, in vitro	not given, 8-mer, flanks averaged, mean of 2 arrays, mostly near background	relative to: not given, higher = stronger binding	E-score	-0.214
GGGAGUUCUACAGUCCGACGAUCACCUCAGCCUCCUGAGUUGGGUCCUACAGGCGCACACGACCACGCCCAGCUAAUUUUUUGUAUUUUUAGUAGAGUUGGGGUUUCACCAUGUUAGCCAGGAUGGUCUCGAUUGGAAUUCUCGGGUGCCAA	RBFOX2 RRM domain, GST-SBP tag	RNA Bind-n-Seq	RNA, in vitro	365 nM, natural RNA segment, single round, ends assumed	relative to: no-protein control, higher = stronger binding	RBNS enrichment (R)	0.495
ATGCTTGG	KAT6A winged helix 1, GST fusion	protein binding microarray	double-stranded DNA, one strand shown, in vitro	not given, 8-mer, flanks averaged, mean of 2 arrays, mostly near background	relative to: not given, higher = stronger binding	E-score	-0.133
PhoQ, residues 284 288 289 292 302 303 SSLVEF	PhoP, residues 12 14 15 18 19 FWNTL (Escherichia coli, UniProt P23836)	Sort-seq, measured: YFP reporter	E. coli	PhoQ-PhoP variant library, together with: 10 µM Mg2+	relative to: high Mg2+ state, higher = stronger signaling	fold induction	3

For quick reference, copied from above (set 1):
Strand	fluorescence intensity
GAAGCAGTACGCTATCATGTGATGAAATATATTTAGGTCTTGATTCGCTTGACGCTGCTG	3460 a.u.
